Experimental data of several laboratories.
Each numbered part is a random draw from the data of one study; scales do not carry over between parts.

Series 1 — method: RNA Bind-n-Seq; form: RNA; sample: in vitro; concentration: 365 nM; reference: no-protein control; reading: higher = stronger binding; quantity: RBNS enrichment (R)
Target: RNA binding protein fox-1 homolog 2, RRM domain, GST-SBP tag (RBFOX2, Homo sapiens, UniProt O43251-10, residues 100-194)
Setting: natural RNA segment, single round, ends assumed
Construct (chain): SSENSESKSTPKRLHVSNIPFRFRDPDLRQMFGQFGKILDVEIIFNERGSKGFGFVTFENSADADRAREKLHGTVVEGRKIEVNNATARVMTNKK
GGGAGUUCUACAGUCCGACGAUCAACCCACUGAAGGGCUUCAGGUUUCAUUUUUUAAUCUUCUCAAAAACCAGAAAAAAAAAAUCAGAAAAGUGUUCUCAGGUUCACCUUACGUCCUGCCUACAACUCCCGAGUGGAAUUCUCGGGUGCCAA: 0.614
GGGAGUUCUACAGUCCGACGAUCUAGGUUUAGUGAGCAUUUCAUGUCAGGGAGCCUCUGGCCAGUGUCUCUGGGAGGUCACUAAUCUACCCCUGAGGUACCCACUCUUUCUGUCGUAGCUUUCUUCUAGGGCCUGGAAUUCUCGGGUGCCAA: 0.274
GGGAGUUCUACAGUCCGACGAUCGUAUUUUGGUAUAGAGUAGGACCCAAGCUUCAUGCAUCUGUAUUUGGUAUAUGUCAAUGACGUGGAGUGAAAUUUGCUAUUAGAUCCUGGAGGCAAAUGGGUUGUACAAGUGGAAUUCUCGGGUGCCAA: 1.42
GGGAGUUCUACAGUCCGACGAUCCCAUCAUUGAGACCUUCAUCUACAGUUUCCAAACAGUCAUUGGAAAACGCACGACAGUUACCCAGAAGGUUUUAUUUCUCAGCAGAUUUGUAGAAUGAAGUAUAACGUCAUGGAAUUCUCGGGUGCCAA: 1.42
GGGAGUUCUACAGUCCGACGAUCAAAGGUAAUAGUGGCACAAUGUUGCUAACUUUAGACAACUUUUAAUAAAUAUGGUUUCGUAAAGAAAUACAGUGAGUUUCCUUUGUGUGCACGCUGCCUUCCUGUGACUGUGGAAUUCUCGGGUGCCAA: 0.592
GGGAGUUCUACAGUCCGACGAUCACUUGUUUCCAUUCAAUGACAAUUAAAAUAGCUUGUAAAUGAGGGCAUACAAGCAUUUGCAACAAGUAUUCAAAUAGAGGCUCACAGCGGCAUAAGCUGGACUUUGUCGCUGGAAUUCUCGGGUGCCAA: 0.963
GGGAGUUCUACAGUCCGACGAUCAUCUCCCAUCUGCUCACAGUAGCACCUCAGACUCCUAUGUCCCAAUGGCAGCAACAAUUUUGCCAUUUCUAUUGACUUUCACAUAGGCGCCCCCAAACACACACAACAACUGGAAUUCUCGGGUGCCAA: 1.55
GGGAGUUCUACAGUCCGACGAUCUAAGGUGAAUAGACACAUUAAGGUGGCAAAUGAUCUACUUUUUCAAGUAAUAUUGCUCCUUUAAAAGGUGUGUUUUUAUUUCUGGUGAUGUCAGGGGCAACGGGGUAUCUUGGAAUUCUCGGGUGCCAA: 0.366
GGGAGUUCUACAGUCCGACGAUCAGCCUUCACAAGCAUGAUAAACCCUCCCUGUUGUGUAUAGUAACGGUCUCAUUUUAUAGUCCACCUUUAAAACACAUCUCUACCUGGUGAAAAGUCAUCACAAGACUCCUUGGAAUUCUCGGGUGCCAA: 0.463
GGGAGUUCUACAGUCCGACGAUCAGGAGGAAGGGACACUCACUCUGGAAGCUCUGCAGCCACUCCGUGCCAGGUGCCUUAACUCUGGGACGUGUACAGACGUCCUCCCUCCUCUUUGGGAACUGUCCUCUUGGUGGAAUUCUCGGGUGCCAA: 0.599
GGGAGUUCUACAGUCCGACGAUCUUGGGAGACAAACUAAGCAAAUCUGGGAUGGGGGCAGUCUGACCUUCUUCCUGCUUCGGUGAUCCGAGGCUAGAGGGAGCUGCAUGGUAUCUUGUUACUAACUCAGUAUGUGGAAUUCUCGGGUGCCAA: 0.923
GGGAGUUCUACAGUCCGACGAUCGCCUCUCCCUAAAGAGCUGCCUCCCUGCUGCCGAGCCCUGGUCUGGCCACGAGCCACCACUGCCUCCCGCUGCUGCCCACAGGUGGUGCCGCCAAUGGGCAGUGCCCUCAUGGAAUUCUCGGGUGCCAA: 0.333

Series 2 — method: protein-binding microarray; form: double-stranded DNA, one strand shown; sample: in vitro; concentration: not given; reading: higher = stronger binding; quantity: E-score
Target: Hepatocyte nuclear factor 3-beta, forkhead domain (FOXA2, Homo sapiens, UniProt Q9Y261, residues 142-269)
Setting: k-mer, scored over probes, only values ≥0.25
Target sequence (chain): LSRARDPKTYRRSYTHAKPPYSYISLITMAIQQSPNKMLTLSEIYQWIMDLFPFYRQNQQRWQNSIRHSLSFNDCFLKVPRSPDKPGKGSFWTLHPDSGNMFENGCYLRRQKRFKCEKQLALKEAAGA
TATAGTCA: 0.352
CACATTAA: 0.261
TAGTTTAA: 0.281
ACTTTATA: 0.261
TGTCACAA: 0.25
AATCATGT: 0.277
CACACACA: 0.27
AATATCGT: 0.256
TACAAGTA: 0.271
ATTGATTG: 0.309
TATAAACA: 0.339
ATTGATGG: 0.297
AAACATGA: 0.305
ACACATAA: 0.416
AACATACA: 0.354
AGGTTGTA: 0.337
AAATAAGA: 0.25
AAACACAC: 0.33
GCGTATAC: 0.253
CCTACACA: 0.27
ATATTCCA: 0.38
ACTGTTGA: 0.259
ACCATCAC: 0.268
AAATCATG: 0.268
ATATCTAC: 0.333

Series 3 — method: universal PBM; form: double-stranded DNA, one strand shown; sample: in vitro; concentration: not given; reading: higher = stronger binding; quantity: E-score
Target: Sal-like protein 4, full length isoform B (SALL4, Homo sapiens, UniProt Q9UJQ4-2, residues 1-616)
Setting: 8-mer, flanks averaged, mean of replicates
Residues (chain): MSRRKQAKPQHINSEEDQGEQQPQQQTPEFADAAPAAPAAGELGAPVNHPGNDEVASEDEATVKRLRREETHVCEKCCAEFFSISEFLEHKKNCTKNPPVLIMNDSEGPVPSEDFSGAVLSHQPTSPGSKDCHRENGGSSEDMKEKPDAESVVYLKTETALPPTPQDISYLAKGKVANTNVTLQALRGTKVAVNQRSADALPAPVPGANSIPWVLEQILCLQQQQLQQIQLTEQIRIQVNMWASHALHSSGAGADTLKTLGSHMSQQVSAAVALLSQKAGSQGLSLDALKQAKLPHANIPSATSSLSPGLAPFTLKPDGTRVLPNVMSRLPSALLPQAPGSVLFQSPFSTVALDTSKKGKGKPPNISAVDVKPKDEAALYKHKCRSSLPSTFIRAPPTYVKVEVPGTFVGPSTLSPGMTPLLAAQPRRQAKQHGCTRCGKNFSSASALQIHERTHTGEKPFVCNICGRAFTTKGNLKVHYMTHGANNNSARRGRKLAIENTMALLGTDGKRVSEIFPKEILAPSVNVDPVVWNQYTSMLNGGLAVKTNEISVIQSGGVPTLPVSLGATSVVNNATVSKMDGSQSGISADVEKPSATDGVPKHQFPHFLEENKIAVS
AAGCCAAA: -0.108
GGACGGTA: 0.0446
CGTTATAA: 0.181
GTTGCCGA: -0.159
TCTATAAA: 0.364
ATTTGTAC: 0.239
GCGGCCGC: -0.345
ATGCTGCA: -0.0318
AGACCGAC: -0.318
CGGTTACA: 0.0656
CCGACCTA: -0.118
GCCATCTA: 0.00606
ATCTTAGA: 0.0293
AAAAAATT: 0.355
TCGATTCA: 0.0445
ACCTCCTC: -0.118
ATTGTAAA: 0.337
CTATAGGC: -0.0309
GGAGGCTA: -0.198
ACCAAAGC: -0.206
ACACCTGG: -0.117
ATAGACCA: 0.0792
GCTCTATA: 0.107
GCAGCTAA: -0.269
CCGACGGC: -0.334

Series 4 — method: protein binding microarray; form: double-stranded DNA, one strand shown; sample: in vitro; concentration: not given; reference: not given; reading: higher = stronger binding; quantity: E-score
Target: Histone acetyltransferase KAT6A, winged helix 2, GST fusion (KAT6A, Homo sapiens, UniProt Q92794, residues 85-181)
Setting: 8-mer, flanks averaged, mean of 2 arrays, mostly near background
Construct (chain): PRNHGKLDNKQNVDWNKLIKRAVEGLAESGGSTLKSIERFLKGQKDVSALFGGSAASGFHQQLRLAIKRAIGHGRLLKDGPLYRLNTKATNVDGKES
GACACAGA: 0.155
GTTTCTCA: 0.0211
ATATCTTC: -0.0158
GCCCTGAA: 0.0599
CCCGACGA: 0.0651
GCCCTAGA: -0.0581
AACTGGCG: 0.0654
GTGGGCTA: -0.0218
AGGGACCG: 0.111
GCCATGCC: 0.106
CATCTCCG: 0.124
CCGCCTCG: 0.282
CACCTCTC: -0.168
CTTACTAA: 0.126
GACCGCGA: 0.218
GGTATTAC: 0.0185
GGCGACGA: -0.00471
AGCAAAAA: 0.0276
CGAAAAAA: 0.112
AAGAGATG: -0.145
AAGCAGCT: -0.0812
AGTTCAGC: 0.0508
AGGCGAGG: 0.217
AATCAGTG: 0.0952
AACCCGAC: -0.00637

Series 5 — method: protein-binding microarray; form: double-stranded DNA, one strand shown; sample: in vitro; concentration: 2540 nM top; setting: 60-bp whole probe; together with: salmon DNA 0.4 mg/ml; reference: random background probes; reading: higher = stronger binding; quantity: fitted relative affinity; all sequences stand within: GCCTAGCAC … GTCTTGATTCGCTTGACGCTGCTG
Target: Interferon regulatory factor 3, full length, phosphomimetic (IRF3, Homo sapiens, UniProt Q14653, residues 1-427, S386D/S396D/S398D/S402D/T404D/S405D)
Target sequence (chain): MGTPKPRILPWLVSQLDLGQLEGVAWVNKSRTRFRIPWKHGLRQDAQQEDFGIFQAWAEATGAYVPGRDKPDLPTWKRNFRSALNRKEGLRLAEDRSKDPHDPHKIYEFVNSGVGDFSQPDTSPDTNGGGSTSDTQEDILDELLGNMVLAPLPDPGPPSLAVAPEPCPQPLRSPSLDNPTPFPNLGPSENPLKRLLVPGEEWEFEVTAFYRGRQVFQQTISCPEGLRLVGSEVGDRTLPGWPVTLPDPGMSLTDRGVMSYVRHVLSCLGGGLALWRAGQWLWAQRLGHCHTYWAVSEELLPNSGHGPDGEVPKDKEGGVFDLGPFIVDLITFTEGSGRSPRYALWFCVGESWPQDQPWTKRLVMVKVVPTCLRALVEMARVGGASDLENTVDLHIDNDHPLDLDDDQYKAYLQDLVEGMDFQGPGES
TTAGGACTGCTTAGCCTTTAGTGCTAG: -0.598 z-score
TTGGATCTCAGTATCGATTAGTGCTAG: 0.661 z-score
TTCGGTATCGACTATCGGTTAGTGCTA: 1.21 z-score
GACGGTTACGGTCTCGGGACGTGCTAG: 1.14 z-score
TTAGGTTTCGGTTCCAGTTAGTGCTAG: 9.97 z-score
GACGATTTCAGAGTGGAGACGTGCTAG: 1.16 z-score
TCCCCTTCTACTCTCCTGCAGTGCTAG: 2.44 z-score
GACGGTTTCGGGTATCGGGGCGTGCTA: 4.48 z-score
TCATTTTACAATTTGCTACTGTGCTAG: 2.27 z-score
GACGATTTCAGTTTCGCGACGTGCTAG: 3.94 z-score
TTAGAACTGGACTATCGGTTAGTGCTA: -0.283 z-score
GACTGTATCGACTATCGGGACGTGCTA: 0.636 z-score
TTAGGTTTCGGACTGGCTTAGTGCTAG: 4.26 z-score
GACGATTTCGGACTGGGGACGTGCTAG: 1.8 z-score
GACGGACTGGGTAGCGGGACGTGCTAG: -0.676 z-score
GACGATTTCGGGACTGGAGACGTGCTA: 1.89 z-score
TTAGGTTTCCTTTTCCTTTTGTGCTAG: 12.4 z-score
CTCCTGCAGCTGCCCTCCTGGTGCTAG: -0.214 z-score
TTAGGTTTCATTTTCCTTTAGTGCTAG: 7.66 z-score
GACGATTTCAGTTTCGAGATGTGCTAG: 4.5 z-score

For quick reference, copied from above (series 3):
AAAAAATT: 0.355
TCGATTCA: 0.0445
ACCTCCTC: -0.118
ATTGTAAA: 0.337
CTATAGGC: -0.0309
GGAGGCTA: -0.198
ACCAAAGC: -0.206
ACACCTGG: -0.117
ATAGACCA: 0.0792
